{"data": "Measurements pooled from the literature", "note": "Protocols differ between the studies behind these lines. ± gives the spread as reported."}
{"SMILES": "C[C@@H](O)[C@@H]1NC(=O)[C@@H](NC(=O)CCOCCOCCOCCOCCNC(=O)c2ccc(NN)nc2)CSSC[C@@H](C(=O)O)NC(=O)[C@H](Cc2c[nH]cn2)NC(=O)[C@H](CO)NC(=O)[C@H](Cc2ccccc2)NC(=O)[C@@H]2CCCN2C(=O)[C@H](CO)NC(=O)[C@@H]2CCCN2C1=O [technetium-99m labelled]", "system": "mouse HCT-116 xenograft, blood", "setting": "intravenous, 37 MBq, postmortem after imaging", "quantity": "tissue uptake", "result": "0.16 ± 0.04 %ID/g"}
{"SMILES": "CC[C@H](C)[C@@H]([C@@H](CC(=O)N1CCC[C@H]1[C@H](OC)[C@@H](C)C(=O)N[C@H](C)[C@@H](O)c1ccccc1)OC)N(C)C(=O)[C@@H](NC(=O)[C@H](C(C)C)N(C)C(=O)OCc1ccc(NC(=O)[C@H](CCCNC(N)=O)NC(=O)[C@@H](NC(=O)CCCCCN2C(=O)CC(SC[C@H](NC(=O)[C@H](CC(=O)O)NC(=O)[C@H](Cc3ccc(O)cc3)NC(=O)[C@H](Cc3c[nH]c4ccccc34)NC(=O)[C@@H](N)CCCNC(=N)N)C(=O)O)C2=O)C(C)C)cc1)C(C)C (some centres unmarked)", "system": "C57BL/6 mouse, healthy, kidney", "setting": "intraperitoneal, 2.5 mg/kg, 24 h", "quantity": "concentration", "result": "not detected"}
{"SMILES": "N=C(N)NCCC[C@@H]1NC(=O)[C@H](CCCCNC(=O)CCC(NC(=S)Nc2ccc(CC3CN(CC(=O)O)CCN(CC(=O)O)CCN(CC(=O)O)CCN3CC(=O)O)cc2)C(=O)NCCCC[C@@H]2NC(=O)[C@@H](Cc3ccc(O)cc3)NC(=O)[C@H](CC(=O)O)NC(=O)CNC(=O)[C@H](CCCNC(=N)N)NC2=O)NC(=O)[C@@H](Cc2ccc(O)cc2)NC(=O)[C@H](CC(=O)O)NC(=O)CNC1=O (some centres unmarked) [scandium-44 labelled]", "assay": "ex vivo γ-counting", "system": "female athymic nude mice, U-87 MG xenograft, liver", "setting": "intravenous, 4 h", "quantity": "tissue uptake", "result": "1.07 ± 0.65 %ID/g"}
{"SMILES": "CC(C)C[C@H](NC(=O)[C@@H]1CCCN1C(=O)[C@H](CCCCN)NC(=O)[C@@H](N)CO)C(=O)N1CCC[C@H]1C(=O)N[C@@H](CCC(=O)O)C(=O)N[C@H](C(=O)N[C@H](C(=O)N[C@@H](CC(=O)O)C(=O)N[C@@H](CCC(=O)O)C(=O)N[C@@H](Cc1ccc(O)cc1)C(=O)NCC(=O)NCCOCCOCCOCCOCCC(=O)N[C@@H](CCCCNC(=O)CC[C@H](C(=O)O)N1CCN(CC(=O)O)CCN(CC(=O)O)CC1)C(=O)N1CCN(CCCN(C)c2ccc3nccc(C(=O)NCC(=O)N4CC(F)(F)C[C@H]4C#N)c3c2)CC1)[C@@H](C)O)C(C)C [copper-64 labelled]", "assay": "PET", "system": "NMRI nude mouse, HT-1080 hFAP xenograft, tumour", "setting": "intravenous", "quantity": "time to maximum uptake", "result": "≥ 60 min"}
{"SMILES": "CCCCCCCCCCCCCCC(=O)N[C@@H](CCCCNC(=O)CN1CCN(CC(=O)O)CCN(CC(=O)O)CCN(CC(=O)O)CC1)C(=O)NCCCC[C@@H]1NC(=O)[C@@H](Cc2ccccc2)NC(=O)[C@H](CC(=O)O)NC(=O)CNC(=O)[C@H](CCCNC(=N)N)NC1=O [indium-111 labelled]", "system": "female BALB/c nude mice, U-87 MG xenograft, tumour", "setting": "intravenous, 4 h", "quantity": "tumour uptake", "result": "9.96 ± 1.84 %ID/g"}
{"SMILES": "CCCCCCCCCCCCCCCCCCCCCCCCCC(=O)O[C@H](CCCCCCCCCCCCCC)[C@@H](O)[C@H](CO[C@H]1O[C@H](CO)[C@H](O)[C@H](O)[C@H]1O)NC(=O)OCOC(=O)CCCCCn1cc(CCC(=O)N[C@@H](Cc2ccccc2)C(=O)N[C@@H](Cc2ccccc2)C(=O)N[C@@H](CCCNC(=N)N)C(=O)N[C@@H](CCCCN)C(=O)N[C@@H](CO)C(=O)N[C@H](C(=O)N[C@H](C(=O)N[C@@H](CC(N)=O)C(=O)N[C@@H](Cc2ccccc2)C(=O)N[C@@H](CCC(=O)O)C(=O)N[C@@H](CCCCN)C(=O)N[C@@H](CC(C)C)C(=O)O)[C@@H](C)CC)[C@@H](C)CC)nn1", "assay": "HPLC-ESI-MS/MS", "system": "aqueous ammonium acetate", "setting": "10 µg/mL, eight days, pH 9.0, 20 °C", "quantity": "α-GalCer released", "result": "0.9%"}
{"SMILES": "CC(C)C[C@H](NC(=O)[C@@H](N)Cc1ccccc1)C(=O)N[C@@H](C)C(=O)N[C@@H](CS)C(=O)N1CCC[C@H]1C(=O)N[C@@H](CCC(=O)O)C(=O)N[C@H](C(=O)N[C@@H](Cc1c[nH]cn1)C(=O)N[C@@H](CS)C(=O)N[C@H](C(=O)NCC(=O)N[C@@H](CO)C(=O)N[C@@H](Cc1c[nH]c2ccccc12)C(=O)N[C@@H](CCCCNC(=O)CN1CCN(CC(=O)O)CCN(CC(=O)O)CCN(CC(=O)O)CC1)C(N)=O)[C@@H](C)O)[C@@H](C)O [gallium-68 labelled]", "assay": "gamma counting", "system": "C57BL/6J mice, B16-F10 tumour, tumour", "setting": "intravenous, 3.7 MBq, 4 h", "quantity": "tumour uptake", "result": "1.49 ± 0.06 %ID/g"}
{"SMILES": "CC(C)C[C@@H]1NC(=O)[C@H](CC(=O)O)NC(=O)CNC(=O)[C@H](CCCNC(=N)N)NC(=O)[C@H](Cc2ccccc2)NC(=O)[C@H](CCCCNC(=O)CCc2cn(CCCNC(=O)CCC(C(=O)O)N3CCN(CC(=O)O)CCN(CC(=O)O)CCN(CC(=O)O)CC3)nn2)N(C)C(=O)[C@H]2CCCN2C(=O)[C@H](Cc2ccccc2)NC(=O)[C@H](C)NC1=O (some centres unmarked)", "system": "female CB17 SCID mice, tumour and muscle", "setting": "intravenous, dose not given, 90 min, 177Lu-labelled", "how to read": "baseline: tumour over muscle", "quantity": "tissue-to-tissue ratio", "result": "17 ± 2.5"}
{"SMILES": "CC(C)C[C@H](NC(=O)[C@@H](N)Cc1ccccc1)C(=O)N[C@@H](C)C(=O)N[C@H]1CSCc2cccc(n2)CSC[C@@H](C(=O)N[C@H](C(=O)NCC(=O)N[C@@H](CO)C(=O)N[C@@H](Cc2c[nH]c3ccccc23)C(=O)N[C@@H](CCCCNC(=O)CN2CCN(CC(=O)O)CCN(CC(=O)O)CCN(CC(=O)O)CC2)C(N)=O)[C@@H](C)O)NC(=O)[C@H](Cc2c[nH]cn2)NC(=O)[C@H]([C@@H](C)O)NC(=O)[C@H](CCC(=O)O)NC(=O)[C@@H]2CCCN2C1=O [gallium-68 labelled]", "assay": "gamma counting", "system": "C57BL/6J mouse, normal, kidney", "setting": "iv, 1.85 MBq, 2 h", "quantity": "tissue uptake", "result": "30 ± 3 %ID/g"}
{"SMILES": "CC(C)C[C@@H]1NC(=O)[C@H](CC(=O)O)NC(=O)CNC(=O)[C@H](CCCNC(=N)N)NC(=O)[C@H](Cc2ccccc2)NC(=O)[C@H](CCCCNC(=O)CCc2cn(CCCNC(=O)CN3CCN(CC(=O)O)CCN(CC(=O)O)CCN(CC(=O)O)CC3)nn2)N(C)C(=O)[C@H]2CCCN2C(=O)[C@H](Cc2ccccc2)NC(=O)[C@H](C)NC1=O", "system": "female CB17 SCID mice, tumour and liver", "setting": "intravenous, dose not given, 90 min, 177Lu-labelled", "how to read": "baseline: tumour over liver", "quantity": "tissue-to-tissue ratio", "result": "1.4 ± 0.9"}
{"SMILES": "CC(=O)N[C@@H](CC(C)C)C(=O)N[C@H](C(=O)N[C@@H](Cc1ccccc1)C(=O)N[C@]1(C)CCCCCC/C=C/CCC[C@@](C)(C(=O)N[C@@H](C)C(=O)N[C@@H](C)C(=O)N[C@@H](C)C(=O)N[C@@H](C)C(=O)N[C@@H](C)C(=O)N[C@H](C)C(N)=O)NC(=O)[C@H](CC(C)C)NC(=O)[C@H](CCCCNC(=O)CCNC(=O)C[C@@H]2N=C(c3ccc(Cl)cc3)c3c(sc(C)c3C)-n3c(C)nnc32)NC(=O)[C@H](C)NC(=O)[C@H](Cc2c[nH]c3ccccc23)NC(=O)[C@H](Cc2ccc(O)cc2)NC(=O)[C@H](C)NC1=O)[C@@H](C)O", "system": "male C57BL/6 mouse, plasma", "setting": "intraperitoneal, 3 mg/kg", "quantity": "half-life", "result": "5.33 h"}
{"note": "For quick reference, copied from above:"}
{"SMILES": "CC(C)C[C@H](NC(=O)[C@@H]1CCCN1C(=O)[C@H](CCCCN)NC(=O)[C@@H](N)CO)C(=O)N1CCC[C@H]1C(=O)N[C@@H](CCC(=O)O)C(=O)N[C@H](C(=O)N[C@H](C(=O)N[C@@H](CC(=O)O)C(=O)N[C@@H](CCC(=O)O)C(=O)N[C@@H](Cc1ccc(O)cc1)C(=O)NCC(=O)NCCOCCOCCOCCOCCC(=O)N[C@@H](CCCCNC(=O)CC[C@H](C(=O)O)N1CCN(CC(=O)O)CCN(CC(=O)O)CC1)C(=O)N1CCN(CCCN(C)c2ccc3nccc(C(=O)NCC(=O)N4CC(F)(F)C[C@H]4C#N)c3c2)CC1)[C@@H](C)O)C(C)C [copper-64 labelled]", "assay": "PET", "system": "NMRI nude mouse, HT-1080 hFAP xenograft, tumour", "setting": "intravenous", "quantity": "time to maximum uptake", "result": "≥ 60 min"}
{"SMILES": "CCCCCCCCCCCCCCCCCCCCCCCCCC(=O)O[C@H](CCCCCCCCCCCCCC)[C@@H](O)[C@H](CO[C@H]1O[C@H](CO)[C@H](O)[C@H](O)[C@H]1O)NC(=O)OCOC(=O)CCCCCn1cc(CCC(=O)N[C@@H](Cc2ccccc2)C(=O)N[C@@H](Cc2ccccc2)C(=O)N[C@@H](CCCNC(=N)N)C(=O)N[C@@H](CCCCN)C(=O)N[C@@H](CO)C(=O)N[C@H](C(=O)N[C@H](C(=O)N[C@@H](CC(N)=O)C(=O)N[C@@H](Cc2ccccc2)C(=O)N[C@@H](CCC(=O)O)C(=O)N[C@@H](CCCCN)C(=O)N[C@@H](CC(C)C)C(=O)O)[C@@H](C)CC)[C@@H](C)CC)nn1", "assay": "HPLC-ESI-MS/MS", "system": "aqueous ammonium acetate", "setting": "10 µg/mL, eight days, pH 9.0, 20 °C", "quantity": "α-GalCer released", "result": "0.9%"}
